Measurements gathered from unrelated publications.
Values joined by “and” are separate records of one study, mostly repeats; a detail may differ.
Cell line: BT-549

C#C[C@@]1(O)[C@@H](CO)O[C@@H](n2cc(Cl)c3c(N)ncnc32)[C@@H]1O  TGI (SRB; NCI-60 screen): 640 nM and 685 nM
O=C1NC(=NCc2cccs2)S/C1=C\c1ccc2ncccc2c1  IC50 (MTS; NCI60 panel): 4.78 µM
O=C(/C=C/C=C/C=C/C1CCCCC1)NC1=C[C@@](O)(/C=C/C=C/C=C/C(=O)NC2=C(O)CCC2=O)[C@@H]2O[C@@H]2C1=O  GI50 (cell growth, CellTiter-Glo; 78 h): 5.74 µM
CC(=O)O[C@H]1C(=O)[C@@]2(C)[C@H]([C@H](OC(=O)c3ccccc3)[C@]3(O)C[C@H](OC(=O)[C@H](O)[C@@H](NC(=O)c4ccccc4)c4ccccc4)C(C)=C1C3(C)C)[C@]1(OC(C)=O)CO[C@@H]1C[C@@H]2O  TGI (sulforhodamine B; Breast cancer; NCI60 screen): 790 nM
C#C[C@@]1(O)[C@@H](CO)O[C@@H](n2cc(Br)c3c(N)ncnc32)[C@@H]1O  TGI (SRB; NCI-60 screen): 819 nM and 536 nM
CCCN1CCN(c2ccc3nc(-c4ccc5nc(-c6cc(OC)ccc6OC)[nH]c5c4)[nH]c3c2)CC1  growth percent (SRB; 10 µM, 48 h): 96.3%
Cn1cncc1C1=CN(c2ncnc3[nH]cnc23)CCS1  GI50: 9.1 µM
CCCCN1CCN(c2ccc3nc(-c4ccc5nc(-c6cc(OC)ccc6OC)[nH]c5c4)[nH]c3c2)CC1  growth percent (SRB; 10 µM, 48 h): 95.9%
COc1cnc2cccc(N3CCc4c(cc(Cn5ccnc5C)cc4-c4cn(C)nc4C(F)(F)F)C3=O)c2c1  EC50 (cell growth, inhibitor; 120 h): > 30 µM
Cc1cc(=O)[nH]n1-c1nc(-c2ccc(Cl)cc2)c2c(NC(=O)c3ccccc3)nnc-2[nH]1  cell growth (SRB; 10 µM, NCI60 single-dose screen; reference: untreated): 99.5%
CCCCN1CCN(c2ccc3[nH]c(-c4ccc5[nH]c(-c6ccc(C(F)(F)F)cc6)nc5c4)nc3c2)CC1  growth percent (SRB; 10 µM, 48 h): -53.2%
CCN(CC)c1ccc(C=NNC(=O)CSc2nc3ccccc3c(=O)n2Cc2ccc(S(N)(=O)=O)cc2)c(O)c1  TGI (NCI five-dose screen): > 100000 nM
CCOc1ccc(-c2nc3cc(-c4nc5cc(N6CCN(C)CC6)ccc5[nH]4)ccc3[nH]2)cc1OCC  growth percent (SRB; 10 µM, 48 h): -29.5%
S=C([S][Au-][P+](CCCCCC[P+]([Au-][S]C(=S)n1cccn1)(c1ccccc1)c1ccccc1)(c1ccccc1)c1ccccc1)n1cccn1  log10 TGI (cell growth, NCI-60 screen; breast cancer): -4.78

Repeated from above:
CCCCN1CCN(c2ccc3nc(-c4ccc5nc(-c6cc(OC)ccc6OC)[nH]c5c4)[nH]c3c2)CC1  growth percent (SRB; 10 µM, 48 h): 95.9%
S=C([S][Au-][P+](CCCCCC[P+]([Au-][S]C(=S)n1cccn1)(c1ccccc1)c1ccccc1)(c1ccccc1)c1ccccc1)n1cccn1  log10 TGI (cell growth, NCI-60 screen; breast cancer): -4.78
